Measured values gathered from unrelated publications.
Numbered parts are unrelated; each lists some results of a single study.

Block 1
Target: Sal-like protein 4, full length isoform A (SALL4, Homo sapiens, UniProt Q9UJQ4, residues 1-1053)
UniProt Q9UJQ4, sequence (whole entry, looked up): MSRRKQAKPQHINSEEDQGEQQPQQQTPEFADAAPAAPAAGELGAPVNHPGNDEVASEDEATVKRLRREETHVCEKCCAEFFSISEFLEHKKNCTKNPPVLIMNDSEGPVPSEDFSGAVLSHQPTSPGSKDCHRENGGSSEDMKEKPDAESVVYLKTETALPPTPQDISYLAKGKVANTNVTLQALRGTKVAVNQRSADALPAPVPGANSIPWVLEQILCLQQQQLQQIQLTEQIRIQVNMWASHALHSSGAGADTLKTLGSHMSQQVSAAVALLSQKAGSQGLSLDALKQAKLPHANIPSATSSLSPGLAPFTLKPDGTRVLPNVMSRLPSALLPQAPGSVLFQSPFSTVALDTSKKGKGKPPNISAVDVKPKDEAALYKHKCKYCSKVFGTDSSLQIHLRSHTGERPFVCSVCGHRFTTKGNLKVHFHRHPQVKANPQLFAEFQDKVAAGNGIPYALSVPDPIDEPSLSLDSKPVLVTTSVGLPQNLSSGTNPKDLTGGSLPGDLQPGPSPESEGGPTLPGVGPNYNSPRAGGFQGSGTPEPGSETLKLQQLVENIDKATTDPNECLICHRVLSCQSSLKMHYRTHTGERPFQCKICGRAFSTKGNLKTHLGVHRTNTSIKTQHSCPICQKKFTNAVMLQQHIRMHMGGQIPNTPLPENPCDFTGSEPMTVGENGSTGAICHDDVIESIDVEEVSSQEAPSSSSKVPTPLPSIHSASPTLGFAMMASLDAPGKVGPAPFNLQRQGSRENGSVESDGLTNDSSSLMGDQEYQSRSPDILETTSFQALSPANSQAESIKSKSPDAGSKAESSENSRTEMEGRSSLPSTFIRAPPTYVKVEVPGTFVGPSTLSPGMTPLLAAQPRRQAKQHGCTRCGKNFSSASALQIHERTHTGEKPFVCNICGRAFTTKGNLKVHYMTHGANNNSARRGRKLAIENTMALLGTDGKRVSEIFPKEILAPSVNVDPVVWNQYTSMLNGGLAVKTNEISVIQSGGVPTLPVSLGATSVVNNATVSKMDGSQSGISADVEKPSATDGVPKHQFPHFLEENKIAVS
Technique: universal PBM
Molecule type: double-stranded DNA, one strand shown
Sample: in vitro
Concentration: 600 nM
Setting: 8-mer, flanks averaged, mean of replicates
Direction: higher = stronger binding
Strand	E-score
GTGGAATA	0.149
CGAATAAC	0.122
ACAGCAAT	0.222
CCGCATTC	-0.146
AGCCCCCT	-0.333
ACAAGAGG	-0.102
TACCCCTA	-0.0722

Block 2
Target: Centromere-binding protein 1, full length, N-terminal tag (CBF1, Saccharomyces cerevisiae, UniProt P17106, residues 1-351)
UniProt P17106, sequence (whole entry, looked up): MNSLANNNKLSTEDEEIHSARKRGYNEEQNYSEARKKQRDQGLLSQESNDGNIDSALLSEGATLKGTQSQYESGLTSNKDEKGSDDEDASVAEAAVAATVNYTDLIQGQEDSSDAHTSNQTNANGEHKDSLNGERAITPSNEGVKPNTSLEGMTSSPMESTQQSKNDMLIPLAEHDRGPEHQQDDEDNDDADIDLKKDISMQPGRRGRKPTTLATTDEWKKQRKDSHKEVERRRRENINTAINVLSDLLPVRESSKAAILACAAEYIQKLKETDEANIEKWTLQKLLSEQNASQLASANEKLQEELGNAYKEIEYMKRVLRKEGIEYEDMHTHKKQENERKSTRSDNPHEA
Technique: protein-binding microarray
Molecule type: double-stranded DNA, one strand shown
Sample: in vitro
Concentration: 0.8 µM
Setting: whole 60-bp probe, no competitor
Direction: higher = stronger binding
All sequences stand within: … GTCTTGATTCGCTTGACGCTGCTG
Strand	fluorescence intensity [a.u.]
GAATGCTGTTCTTTCTTCATGATGCATTATGTATAG	548
GAACTAGAGAGCGAATACGTGCTCTGTAATTGTTAG	562
GAACGCTATTAACGTGGTGTAGTCATGTGACCGTAG	13400
GAATTACTTCTAGACCACGCATTTAACAATAATTAG	563
CTAAGGAGAAACAGTGGTCTGATGTGATAGGGATTC	548
CTATTGTTTCAACCTCATGACCCCTGTCTTGACTTC	666

Block 3
Target: Transcriptional repressor CTCF (CTCF, Homo sapiens, UniProt P49711, residues 1-727, full length assumed)
UniProt P49711, sequence (whole entry, looked up): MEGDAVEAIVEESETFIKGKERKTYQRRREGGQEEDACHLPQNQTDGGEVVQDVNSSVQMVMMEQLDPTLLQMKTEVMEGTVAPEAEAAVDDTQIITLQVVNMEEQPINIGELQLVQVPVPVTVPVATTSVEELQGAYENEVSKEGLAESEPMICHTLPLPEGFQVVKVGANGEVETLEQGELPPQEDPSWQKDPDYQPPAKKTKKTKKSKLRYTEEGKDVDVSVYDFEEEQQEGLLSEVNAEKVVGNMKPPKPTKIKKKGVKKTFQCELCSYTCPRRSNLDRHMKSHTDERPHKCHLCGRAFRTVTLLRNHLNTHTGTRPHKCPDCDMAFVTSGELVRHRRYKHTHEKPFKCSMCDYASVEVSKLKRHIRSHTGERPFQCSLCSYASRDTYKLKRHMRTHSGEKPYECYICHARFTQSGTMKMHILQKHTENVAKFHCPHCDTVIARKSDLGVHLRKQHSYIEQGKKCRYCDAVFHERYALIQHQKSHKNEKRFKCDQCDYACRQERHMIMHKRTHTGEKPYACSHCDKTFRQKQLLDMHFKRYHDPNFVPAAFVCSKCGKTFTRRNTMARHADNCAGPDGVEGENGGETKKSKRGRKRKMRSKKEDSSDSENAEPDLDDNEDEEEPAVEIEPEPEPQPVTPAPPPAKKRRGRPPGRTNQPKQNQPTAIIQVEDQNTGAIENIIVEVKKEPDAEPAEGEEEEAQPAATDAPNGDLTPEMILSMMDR
Technique: protein-binding microarray
Molecule type: double-stranded DNA, one strand shown
Sample: in vitro
Concentration: not given
Setting: k-mer, scored over probes, only values ≥0.25
Direction: higher = stronger binding
Strand	E-score
TTAAATAA	0.264
ATATACAC	0.294
AATAAATG	0.274
GCGCGAAA	0.333
GTATATTA	0.365
GCGCGCGA	0.307
AACAGAAA	0.262
AAGTGGCG	0.318
AGAATATG	0.263
ACGTTATA	0.393
ATTTATTA	0.287

Single results of other studies
Molecule	target	assay	system	conditions	how to read	quantity	value
PhoQ, residues 284 288 289 292 302 303 SLKLQV	PhoP, residues 12 14 15 18 19 NQCAL (Escherichia coli, UniProt P23836)	Sort-seq, item: YFP reporter	E. coli	PhoQ-PhoP variant library, added: 10 µM Mg2+	relative to: high Mg2+ state, higher = stronger signaling	fold induction	8.39

A few entries again (block 1):
Strand	E-score
CGAATAAC	0.122
ACAGCAAT	0.222
CCGCATTC	-0.146
AGCCCCCT	-0.333
